Measurements from different studies.
Parts stem from different laboratories: compare values within a part only.

Study 1 — method: RNA Bind-n-Seq; molecule type: RNA; matrix: in vitro; concentration: 200 nM; setting: whole 134-nt RNA, ends assumed; together with: 150 mM LiCl; relative to: input library; reading: higher = stronger binding; all molecules: 7-deaza-guanosine replaces G
Target: Fragile X messenger ribonucleoprotein 1, C-terminal low-complexity region (Fmr1, Mus musculus, UniProt P35922)
Shared flanks, not repeated: GGGAGUUCUACAGUCCGACGAUC … UGGAAUUCUCGGGUGUCAAGG
Oligonucleotide | log2 enrichment
UGGCCCUGGUGGCAUGCGGGGAGGAAGCGGUGGCCUCAUGGAUCGUGGUGGUCCCGGUGGAAUGUUCAGAGGUGGCCGUGGUGGAGACAG | -0.279
CAAGUCCUGUGCUACACAUCGUAUGUACCGAAUCGGUUUUUUUGGAGGAAAAAGGAAAGUAUUAUGUUACGCCGUUCGGAUCUGCACUUC | -1.26
UGGGAGGUGGAUUUUGUGUAUUUUUUUAGCUCAUUUCCAGGGGUGGGAAUUUUUUUUUAAUAUGUGUCAUGAAUAAAGUUGUUUUUGAAA | 0.422
CACAGACAACACGCACCCACACAGACACAGAGGGAAGGGGUUGGGAUGGGGACAGGGUGCACAGCAGGGCGGGGUAGAAACCCAGCCCCU | 1.05
CCUCAAGUCCUGUGCUACACAUCGUAUGUACCGAAUCGGGGCGGGCGGGCGGGAAAGUAUUAUGUUACGCCGUUCGGAUCUGCACUUCCA | -0.962
UUGUGGGAGGAUUUUGAGAUACUUAUUCUUUAUUUGAGCCAGUCUUGCAAGGUUAACUUCUCACUGGGCCUAGUGUGGUGCCCAGGUUUU | -2.99
CAUGUUGAAAGACAUGCUUUUAUUUUUUUGUAAAACAAUAUAGGAGCUGUGUCUACUAUUAAAAGUGAAACAUUUUGGCAUGUUUGUUAA | -3.75
CUGUGCUACACAUCGUAUGUACCGAAUCGGGGAAAAAAAGGGAAAAAAAGGGAAAAAAAGGAAAGUAUUAUGUUACGCCGUUCGGAUCUG | -0.0881
UGUGUGUUAUAUAUUUAUUUUUAAUUGCAGAUGACAGGAUUGGACAUUGAGAAGGACCAGAUUAUUGAGAUGGCCUGUCUGAUAACUGAC | -3.44
UCCUGUGCUACACAUCGUAUGUACCGAAUCGGGUUUUUUUGGGAAAAAGGGUUUUUGGGAAAGUAUUAUGUUACGCCGUUCGGAUCUGCA | -2.52
CUCAAGUCCUGUGCUACACAUCGUAUGUACCGAAUCGGGCCGGGGCCGGCCGGAAAGUAUUAUGUUACGCCGUUCGGAUCUGCACUUCCA | 0.498

Study 2 — method: protein-binding microarray; molecule type: double-stranded DNA, one strand shown; matrix: in vitro; concentration: 250 nM; setting: 60-bp whole probe; together with: salmon DNA 0.4 mg/ml; relative to: random background probes; reading: higher = stronger binding; shared flanks, not repeated: GCCTAGCAC … GTCTTGATTCGCTTGACGCTGCTG
Target: Interferon regulatory factor 7, full length, phosphomimetic (IRF7, Homo sapiens, UniProt Q92985, residues 1-503, S101K/S471D/S472D/S475D/S476D/S477D/S483D/S484D/S487D)
Residues (chain): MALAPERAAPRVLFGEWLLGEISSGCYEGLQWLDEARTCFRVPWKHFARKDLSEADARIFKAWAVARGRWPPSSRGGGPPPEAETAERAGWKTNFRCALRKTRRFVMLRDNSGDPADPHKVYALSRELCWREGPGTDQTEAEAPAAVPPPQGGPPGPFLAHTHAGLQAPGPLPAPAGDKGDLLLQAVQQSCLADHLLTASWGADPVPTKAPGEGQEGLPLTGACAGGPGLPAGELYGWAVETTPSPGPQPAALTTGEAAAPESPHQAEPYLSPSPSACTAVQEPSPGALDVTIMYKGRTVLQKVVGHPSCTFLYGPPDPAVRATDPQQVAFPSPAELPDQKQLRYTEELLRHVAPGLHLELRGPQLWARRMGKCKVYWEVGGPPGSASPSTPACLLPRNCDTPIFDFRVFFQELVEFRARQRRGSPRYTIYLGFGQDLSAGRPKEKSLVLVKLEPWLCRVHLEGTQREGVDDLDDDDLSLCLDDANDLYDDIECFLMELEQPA
Oligonucleotide | log fluorescence
GAGGAACTGGGGTATCGAGACGTGCTA | -0.494 z-score
GACGGTATCAGTATCGGGACGTGCTAG | -0.175 z-score
CTCTTTCTTTGCTTCACCCTGTGCTAG | 1.94 z-score
TTAGGACAGGGGTATCGGTTAGTGCTA | 0.43 z-score
GGAGGCTCTTGCTACTGAAGGTGCTAG | -1.4 z-score
TCATATGTCATTTACATACTGTGCTAG | 0.938 z-score
TCATTTCTAATTTACTTACTGTGCTAG | 1.86 z-score
TTAGGGCTGGGGTATCGGTTAGTGCTA | -0.264 z-score
TTAGGTATTGGGTTTCGGTTAGTGCTA | 5.66 z-score
CTAGATTTCGGGTATCGATTAGTGCTA | 2.35 z-score
TTAGGTTCCGACTTTCGGTTAGTGCTA | 3.4 z-score
TTAGGTCTCCTACAGCTTTAGTGCTAG | -0.291 z-score
TTATGTCTCGGTTTCGGTTAGTGCTAG | 9.92 z-score
TCATGTGTGCATCTATCACTGTGCTAG | -0.375 z-score
TTTTTTTTCATCATTGCCTAGTGCTAG | 1.57 z-score
CACGGTTTCGACACTGGGGACGTGCTA | 4.13 z-score
GACGGACTGCTTAGCCTGACGTGCTAG | -0.592 z-score
GACGATCACAGTTTCGAGACGTGCTAG | 3.75 z-score
TCATCTCTGGGCTGTGGGACTGTGCTA | -0.34 z-score
GACGGTTTAGGACTGGGGACGTGCTAG | 0.118 z-score
GACGGTATCCTTCTCCTGGCGTGCTAG | 0.218 z-score
AGATGAAAAGTGAAGCCTAGGTGCTAG | -0.649 z-score
TTAGGTTCCGGTGTCGGTTAGTGCTAG | 1.02 z-score
TTAGGTATCCGGTTTCGGTTAGTGCTA | 6.9 z-score
GAGGAACTGAGTTTCGAGACGTGCTAG | 4.25 z-score

Study 3 — method: universal PBM; molecule type: double-stranded DNA, one strand shown; matrix: in vitro; concentration: 600 nM; reading: higher = stronger binding
Target: Sal-like protein 4, full length isoform A (SALL4, Homo sapiens, UniProt Q9UJQ4, residues 1-1053)
Sequence of UniProt Q9UJQ4 (whole entry, looked up): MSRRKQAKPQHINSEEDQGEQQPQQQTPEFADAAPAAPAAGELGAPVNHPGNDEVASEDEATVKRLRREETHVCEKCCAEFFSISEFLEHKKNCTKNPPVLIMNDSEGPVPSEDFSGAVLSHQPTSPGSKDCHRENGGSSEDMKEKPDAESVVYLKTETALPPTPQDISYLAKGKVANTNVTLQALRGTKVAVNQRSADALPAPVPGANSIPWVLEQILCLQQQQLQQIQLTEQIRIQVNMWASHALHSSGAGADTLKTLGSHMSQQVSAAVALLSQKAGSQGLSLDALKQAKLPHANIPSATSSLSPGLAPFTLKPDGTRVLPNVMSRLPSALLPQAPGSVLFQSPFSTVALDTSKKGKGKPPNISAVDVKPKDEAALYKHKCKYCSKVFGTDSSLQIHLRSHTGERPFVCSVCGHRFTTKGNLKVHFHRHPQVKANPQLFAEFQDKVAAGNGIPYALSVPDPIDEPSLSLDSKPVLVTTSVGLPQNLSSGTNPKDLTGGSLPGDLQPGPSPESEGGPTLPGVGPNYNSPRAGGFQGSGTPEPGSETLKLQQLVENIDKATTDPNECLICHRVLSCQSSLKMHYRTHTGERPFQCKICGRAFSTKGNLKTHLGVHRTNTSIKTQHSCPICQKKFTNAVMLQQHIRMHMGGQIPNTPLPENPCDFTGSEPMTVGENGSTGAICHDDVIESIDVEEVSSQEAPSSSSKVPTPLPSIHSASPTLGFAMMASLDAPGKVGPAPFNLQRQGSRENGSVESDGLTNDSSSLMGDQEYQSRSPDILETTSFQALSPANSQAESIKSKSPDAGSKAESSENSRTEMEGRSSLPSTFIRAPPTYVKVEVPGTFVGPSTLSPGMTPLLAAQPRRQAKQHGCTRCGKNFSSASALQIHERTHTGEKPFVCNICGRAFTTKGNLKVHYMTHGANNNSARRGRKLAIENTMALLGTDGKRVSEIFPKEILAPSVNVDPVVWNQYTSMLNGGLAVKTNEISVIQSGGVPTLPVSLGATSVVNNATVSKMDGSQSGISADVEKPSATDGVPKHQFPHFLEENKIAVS
Setting: 8-mer, flanks averaged, mean of replicates
Oligonucleotide | E-score
AAGATCGC | -0.121
ACCGTCGC | -0.252
AATACGCG | 0.0362
AGTGAGAG | -0.142
AGTACTGA | 0.153
GGTCTTAA | -0.0249
GCAGTTCA | -0.0891
ACAAAGCG | 0.0066
CCAAACCC | -0.0496
AAGAGCCA | -0.0558
ACCCCCTA | -0.205
GAGCAAGC | -0.358
AATTACCA | 0.329
CAGCGATC | -0.117
CACCTATA | 0.174
TCTTTAAA | 0.281
ATTAGGTG | 0.0822
ACCACCCT | -0.257
AAGTCCCT | -0.00726
ACAACGGG | -0.0798
AAGTCGAT | 0.0816
TGGCGACA | -0.0289
ACGTGAGT | -0.0585
TCTACGCA | 0.084
ACTTCAAG | 0.161

Study 4 — method: RNA Bind-n-Seq; molecule type: RNA; matrix: in vitro; concentration: 365 nM; relative to: no-protein control; reading: higher = stronger binding
Target: RNA binding protein fox-1 homolog 2, RRM domain, GST-SBP tag (RBFOX2, Homo sapiens, UniProt O43251-10, residues 100-194)
Setting: natural RNA segment, single round, ends assumed
Shared flanks, not repeated: GGGAGUUCUACAGUCCGACGAUC … UGGAAUUCUCGGGUGCCAA
Residues (chain): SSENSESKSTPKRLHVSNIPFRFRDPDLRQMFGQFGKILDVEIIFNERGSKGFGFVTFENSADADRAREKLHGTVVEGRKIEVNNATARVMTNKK
Oligonucleotide | RBNS enrichment (R)
UUUAAACAACCAAGCUAAAGCUAUGUGAAAGUUGAGCUCAAAGUAGAGGAAAAGUUACUGGUGGUACCUUGCUGCCUGCUCUGCUGGUAGAAUUCUGUGCUCCCCGUGAC | 0.289
CUGGGCCACCUUGGGAAGCCAUCCUUGAGGCCCUUGCUCCAAUAGGAGAGGUAUUGUGGAUUCACACGGCAGUCACUUGUUGCCCUCAUGCCCUGUGGUGUUUGGCACGA | 0.168
GUCUGCAGAUGGAAAUCAUUCCCCACUGGCAGUAUCUGCUCGGGUUCAACGCUCUGUCCUCUGAGGAGUGUUGUGUCUGAUUUUAUUUUAAAAGUUCACGGUAUGAGAGU | 0.529
UCCCCAGUCGAUUGGGACACAGUCUCUCUUUGUCUAGGUAACACAUGGUGACACAUAGCAUUGAACUCUCCACUCUGAGGGUGGGUUUCCCUCCCCCUGCCUCUUCUGGG | 0.563
ACACAAAAAAGUGUCUUACUUGAGAGUGAGUGUGUGUGUGUGCGUGUGCACGUGCACACAUGUGCACGUUUGUAUGUAUGGAAAUAAACUUAUAAAUGGGGACGUAUUGG | 0.901
UCGACUUGAAUAUUAUCCCUAUGUAUUGCAUGAGAGGGGUCUCCCUCAUUCCAUCAGAGUAAUACACUUGCUUUAAUUCUUAAGCCUAAGUGAUACAAACAUGCCGAAUU | 1.44
GGUGAUAGACCCUGGUACUCCUAAGACCUGGGGUAUCAUAUCAGGGACCUGCUUGUGAACAUGUGUAUAGAGUGCCAGCUCAGAUAAUAAGCUUACCAGUGACCUUGUUC | 0.836
UGUAAUGAUUUGCUUCUGCACCUUGGUCUAGUGCUGGUUUGUGGUGUUUUUGUUUGUAAAUUAGCCUCACUGCCUCCCUGAAAGUGCACAGUCAGCCCAGGUCUCUAGAG | 0.47
AUGAGGGCCACCAGGAAGCACAGGUCCAAGGCUGGUCCCACACUUAUCAGCAGCAACAACUGUCAGUUCAUCCUGCAUGGGAAAAAUGUUGGAAUGGGAGUCUGAAAUGG | 2.05
AGGCCUUGGAUUUAUAUUGCACUUCAUAGACCCCUAGGCUGCUGUGCGGUGGGACUCCACAUGCGCCGGAAGGAGCUUCAGGUGAGCACUGCUCAUGUGUGGAUGCCCCU | 2.39
GUUUAUAAUGUUCUGGCGUUGUAGCAGAAGGUUGGAUGACACACAAGCAUCUGAAACGUGCCAGCCUCUGCGGUUCCCGUUAUCAUCUUAGGGGGCAGAAGCCAAUGGGU | 0.618
CUGAGGGGGAAGACGUGGGACCGGAUGGCCCGUCUGAGGUUUGUGGGGUCACUGUGCAAGCUUCCUUAUGGUUUGAACCUCUUGUCAUGUGAUAAAAGUCUCUGUCUCGA | 1.04

Some of these lines once more (study 2):
Oligonucleotide | log fluorescence
TCATGTGTGCATCTATCACTGTGCTAG | -0.375 z-score
TTAGGTCTCCTACAGCTTTAGTGCTAG | -0.291 z-score
GACGGACTGCTTAGCCTGACGTGCTAG | -0.592 z-score
TTAGGTATTGGGTTTCGGTTAGTGCTA | 5.66 z-score
